# Experimental data of several laboratories.
# Lines come from different studies, so protocols differ.
# Target: Cytochrome P450 1A2 (CYP1A2, Homo sapiens, UniProt P05177)
# UniProt P05177, sequence (whole entry, looked up): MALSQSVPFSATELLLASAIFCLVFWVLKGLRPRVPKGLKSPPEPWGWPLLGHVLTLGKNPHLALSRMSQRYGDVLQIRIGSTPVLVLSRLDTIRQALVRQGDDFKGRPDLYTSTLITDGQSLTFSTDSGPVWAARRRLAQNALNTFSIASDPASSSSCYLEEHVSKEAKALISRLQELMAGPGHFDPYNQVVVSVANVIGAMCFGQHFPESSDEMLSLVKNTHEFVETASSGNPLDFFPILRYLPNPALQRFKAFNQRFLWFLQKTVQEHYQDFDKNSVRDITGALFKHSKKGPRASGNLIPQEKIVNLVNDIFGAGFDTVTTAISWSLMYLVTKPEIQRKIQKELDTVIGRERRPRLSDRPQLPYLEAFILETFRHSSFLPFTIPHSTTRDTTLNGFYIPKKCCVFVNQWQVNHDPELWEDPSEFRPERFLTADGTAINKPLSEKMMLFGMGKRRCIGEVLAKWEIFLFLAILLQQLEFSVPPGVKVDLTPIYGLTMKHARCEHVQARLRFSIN
# Mode: inhibitor
SMILES,test,system,conditions,endpoint,value
O=c1cc(-c2ccccc2)oc2ccc(O)cc12,enzyme activity,,,IC50,6.92 µM
CNC(=O)Oc1cc(C)c(SC)c(C)c1,,human liver microsomes,"10 µM, pH 7.4, together with: phenacetin",inhibition,88.9%
CC[C@@H]1CN2CC[C@@]3(O)C(=Nc4cccc(OC)c43)[C@@H]2C[C@@H]1/C(=C\OC)C(=O)OC,enzyme activity,"human, liver microsomes",,IC50,> 45 µM
CNC(=O)O/N=C/C(C)(C)SC,,human liver microsomes,"10 µM, pH 7.4, together with: phenacetin",inhibition,5.89%
O=C(Cc1ccccc1Nc1c(Cl)cccc1Cl)Oc1ccc(-c2cc(=S)ss2)cc1,"enzyme activity, fluorescence",,,IC50,1.75 µM
C#CCOc1ccccc1-c1cc(=O)c2ccccc2o1,enzyme activity,,,IC50,1.29 µM
O=S(=O)(O)C(F)(F)C(F)(F)C(F)(F)C(F)(F)F,enzyme activity,Supersomes,together with: 7-methoxyresorufin substrate,IC50,> 100 µM
CC[C@H]1CN2CCc3c([nH]c4cccc(OC)c34)[C@@H]2C[C@@H]1/C(=C\OC)C(=O)OC,enzyme activity,"human, liver microsomes",,IC50,> 45 µM
O=c1cc(-c2ccc(O)cc2)oc2ccccc12,enzyme activity,,,IC50,6.52 µM
O=C(O)C(F)(F)C(F)(F)C(F)(F)C(F)(F)C(F)(F)F,enzyme activity,Supersomes,together with: 7-methoxyresorufin substrate,IC50,> 100 µM
O=c1cc(-c2cccc(O)c2)oc2ccccc12,enzyme activity,,,IC50,9.22 µM
O=C1Cc2cc(CCN3CCN(c4nsc5ccccc45)CC3)c(Cl)cc2N1,,human liver microsomes,"10 µM, pH 7.4, together with: phenacetin",inhibition,< 0%

# Some of these lines once more:
SMILES,test,system,conditions,endpoint,value
C#CCOc1ccccc1-c1cc(=O)c2ccccc2o1,enzyme activity,,,IC50,1.29 µM
